Assay results gathered from unrelated publications.
Compare with care: the assays were run in different laboratories. “And” joins repeats or separate records; there may be more than shown. Numbers after ± are the reported error.

`C/C(=N\c1ccc(O)cc1)c1cc2ccccc2n1C` gave a distribution half-life of roughly 0.267 h (Sprague-Dawley rat, male, plasma; intravenous bolus, 5 mg/kg, two-compartment model).
With `COc1ccc2c(=O)n(C)c(-c3ccccc3)nc2c1` the tissue/plasma ratio was 30.1 (Sprague-Dawley rat, male, abdominal fat; oral, 30 mg/kg, 0.5 h; relative to: abdominal fat over plasma).
The AUC0-∞ increase of `C=CC(=O)NC1CCN(c2ncc3ncnc(Nc4ccc(Oc5ccc6c(c5)ncn6C)c(C)c4)c3n2)CC1` is reported as roughly 26% (human, male, plasma; oral, 240 mg, fed; relative to: fasted).
`CNCc1ccc(-c2[nH]c3cc(F)cc4c3c2CCNC4=O)cc1` — result for “abdominal distension incidence”: 22.2% (patients; oral, 480 mg twice daily, all grades).
For `Cl.[2H]C([2H])([2H])CC(=O)c1cnc(NC(=O)C2CC2)cc1Nc1cccc(-c2ncn(C([2H])([2H])[2H])n2)c1OC`, the Vz/F was 130 L (geometric mean; human; oral, 50 mg single dose, fasted, liquid).
The unbound AUC0–12 of `CCO[C@H]1CCN(Cc2c(OC)cc(C)c3[nH]ccc23)[C@H](c2ccc(C(=O)O)cc2)C1` is reported as 4650 ng·h/mL (human moderate hepatic impairment, plasma; oral, 200 mg single dose, mean).
For `Cc1nc(-c2cnc(NC(C)C)n(C)c2=O)ccc1Oc1ccnc(-c2cnn(C)c2)c1`, the Vz was 0.69 L/kg (rat (Sprague-Dawley, male), plasma; intravenous, 1 mg/kg).
The CLint of `Cc1nc(Nc2ncnc3ccc(-c4cccc(N5CCOCC5)c4)cc23)oc1C` is reported as 24 µL/min/mg (human liver microsomes).
Under “skin subcutaneous disorders incidence”, `Cc1cc(Nc2cc3ncccc3c(N[C@@H]3C[C@H]4CC[C@@H](C3)N4CCC#N)n2)n[nH]1` is recorded as 17% (healthy human subjects; oral, 300 mg, 2 weeks, single ascending dose).
Under “subjects with papular urticaria TEAE”, `O=C(O)CCC(=O)O.[2H]C([2H])([2H])Oc1cc(C)c2[nH]ccc2c1CN1CC[C@@H](C2CC2)C[C@H]1c1ccc(C(=O)O)cc1` is recorded as 0% (multiple ascending dose; healthy Chinese subjects; 300 mg once daily).
The TEAE incidence of `C[C@@H](N)C1CCN(S(=O)(=O)c2cccc3cnccc23)CC1` is reported as 0% (measured: Bradycardia; healthy volunteers; 25 mg, fasted).
Under “total dose excreted”, `O=C1CC[C@H](N2Cc3cc(N4CCN(CC5CCN(c6ccc([C@@H]7c8ccc(O)cc8CC[C@@H]7c7ccccc7)cc6)CC5)CC4)ccc3C2=O)C(=O)N1` is recorded as 92.9% (radiolabelled mass balance; Sprague-Dawley rat, female, urine and feces; oral, 20 mg/kg, up to 168 h).
Under “enthalpy of phase change”, `C[Si]1(C)O[Si](C)(C)O[Si](C)(C)O[Si](C)(C)O[Si](C)(C)O1` is recorded as 16.4 kcal/mol (1-octanol/water; concentration not given).
The plasma concentration of `CC(=O)N(C)C1CCN(c2cc(F)cc(NC(=O)c3cc4c(F)ccc(C)c4[nH]3)c2)C1` (centres unmarked) is reported as 785 ng/mL (CD1 mouse, plasma; intravenous, 1 mg/kg, 0.167 h).
The %AUC extrapolated of `CC(C)C[C@H](NC(=O)[C@H](CC(C)C)NC(=O)[C@H](Cc1c[nH]c2ccccc12)NC(=O)[C@H](CCC(=O)O)NC(=O)[C@@H](NC(=O)[C@H](Cc1ccccc1)NC(=O)[C@H](CCC(=O)O)NC(=O)[C@H](CCCCNC(=O)COCCOCCNC(=O)COCCOCCNC(=O)CC[C@H](NC(=O)CCCCCCCCCCCCCCCCCCC(=O)O)C(=O)O)NC(=O)[C@H](C)NC(=O)[C@H](CCCCN)NC(=O)[C@H](CCCCN)NC(=O)[C@H](CCC(=O)O)NC(=O)[C@H](CC(=O)O)NC(=O)[C@H](CC(C)C)NC(=O)[C@H](Cc1ccc(O)cc1)NC(=O)[C@H](CCCCN)NC(=O)[C@H](CO)NC(=O)[C@H](Cc1ccc(O)cc1)NC(=O)[C@H](CC(=O)O)NC(=O)[C@H](CO)NC(=O)[C@@H](NC(=O)[C@H](Cc1ccccc1)NC(=O)[C@@H](NC(=O)CNC(=O)[C@H](CCC(N)=O)NC(=O)C(C)(C)NC(=O)[C@@H](N)Cc1c[nH]cn1)[C@@H](C)O)[C@@H](C)O)C(C)C)C(=O)N[C@@H](CCC(=O)O)C(=O)NCC(=O)NCC(=O)N1CCC[C@H]1C(=O)N[C@@H](CO)C(=O)N[C@@H](CO)C(=O)NCC(N)=O` is reported as 1% (human, plasma; subcutaneous, 16 mg weekly, week 20).
`CCOc1c([C@H](C)n2nc(C)c3c(N)ncnc32)cc(Cl)c(F)c1[C@@H]1CNC(=O)C1` gave a Cmax of 4.01 ± 1.4 µM (patients, monotherapy; oral, 45 mg once daily, cycle 1 day 1).
For `COc1ncc(-c2nc3c(n2C(C)C)[C@H](c2ccc(Cl)cc2)N(c2cc(Cl)cn(C)c2=O)C3=O)c(OC)n1`, “AUC(0-t) geometric mean” read 8030 ng·h/mL (human patients, plasma; oral, 50 mg, high-dose arm, cycle 1 day 1).
Under “treatment-emergent adverse events”, `O=C(Nc1nc2cccc(-c3ccc(CN4CCS(=O)(=O)CC4)cc3)n2n1)C1CC1` is recorded as 0% (measured: regurgitation; rheumatoid arthritis patients; oral, 30 mg once daily, 4 weeks, any relatedness).
`CC1(C)OC[C@H](c2ccc(O)cc2)N[C@@H]1c1ccc(-c2ccccc2)cc1` gave a logD of greater than 4.7 (shake-flask, 1-octanol/buffer; pH 7.4).
Under “last quantifiable time”, `CN(C(=O)C(C)(C)c1cc(C(F)(F)F)cc(C(F)(F)F)c1)c1cnc(N2C[C@H]3COCCN3C[C@H]2CO)cc1-c1ccc(F)cc1[14CH3]` is recorded as 24 to 96 h (measured: total radioactivity; human, male, whole blood; oral, 120 mg).
`CN1CCN(C(=O)[C@H](CCCN[C@@H]2C[C@H]2c2ccc(F)cc2)NC(=O)c2ccc(-n3ccnn3)cc2)CC1`: lymphocyte count “no effect” (C57BL/6 mice; oral, 40 to 60 mg/kg/day, 7 days).
With `C[C@H]1OC[C@H](c2ccc(-c3ccccn3)cc2)N[C@@H]1c1ccc(F)cc1Cl` the logD was greater than 4.7 (shake-flask, 1-octanol/buffer; pH 7.4).
The logD of `COc1cc2[nH]c(C)c(-c3cc4ccccc4s3)c(=O)c2cc1Cl` is reported as 3.5 (chromatographic; pH 7.4).
With `CNC(=O)c1ccc(-c2cnc3ncc(Cc4ccc5ncccc5c4)n3n2)cc1F` the Dysphonia patients was 0% (Japanese patients; oral, 400 mg twice daily, grade 3/4).
`Cn1nc([N+](=O)[O-])nc1Oc1ccccc1C(=O)N1CCOCC1` has a logD of 0.44 (octanol/buffer; pH 7.4).
For `CN(CCC#N)C1CCN(C(=O)Cn2cc(NC(=O)c3cnn4cccnc34)c(-c3cc(Cl)ccc3OC(F)F)n2)CC1`, “LDL cholesterol change” read -4.8 mg/dL (healthy human; 3 mg once daily, day 42; relative to: baseline).
`CC#CC(=O)N1CCC[C@H]1c1nc(-c2ccc(C(=O)Nc3ccccn3)cc2)c2c(N)nccn12` — result for “cysteine adduct formation”: 66% (PBS; 100 µM, 23 h, pH 8, 37 °C, added: cysteine 10 mM).
`CCOC(=O)[C@H](CCc1ccccc1)N[C@@H](C)C(=O)N1[C@H](C(=O)O)C[C@H]2CCCC[C@@H]21` has a freeze-thaw stability of 106 ± 6% (human plasma; 1000 pg/mL, 3 cycles at -20 °C; relative to: nominal).
`CCN1CCN(Cc2ccc(NC(=O)c3ccc(C)c(NC(=O)c4cncc(-c5cccs5)c4)c3)cc2C(F)(F)F)CC1` gave a plasma concentration of 649 ng/mL and 822 ng/mL and 676 ng/mL (LC-MS/MS; C57BL/6 mouse, plasma; intraperitoneal, 30 mg/kg single dose, 0.5 h).
Under “geometric mean brain concentration”, `CCCCCN1C[C@H](O)[C@@H](O)[C@H](O)[C@@H]1CO` is recorded as 277 ng/g (LC-MS/MS; Hexb-/- mice, male, brain; 300 mg/kg/day).
`Cn1cnc2c(F)c(Nc3ccc(Br)cc3Cl)c(C(=O)NOCCO)cc21` — result for “absorption lag time”: 0.62 h (population PK model; human, plasma; oral, zero-order absorption model, fed).
`[O]=[Co].[O]=[Co][O][Co]=[O]` gave a cobalt concentration of 172 µg/L (rat, female, urine, 24-h collection; oral gavage, single, 300 mg/kg (220 mg Co/kg), day 3, vehicle 0.5% HPMC).
With `c1ccc(CN2CCCN3CCN(Cc4ccccc4)CCCN(CC2)Cc2cccc(n2)C3)cc1` the intact complex was 99% (64Cu complex; 2 h, pH 7.4, 37 °C, added: DOTA excess).
`Cc1cc(C(=O)NC(C)(C)COc2cccc3c2C(N)=NS(=O)(=O)N3)cc(C)n1` gave a Vz of 0.536 L/kg (Sprague-Dawley rat, male, plasma; intravenous, 1 mg/kg).
With `CCn1cc(C(=O)N2CCOCC2)c(=O)c2cc(NC3Cc4ccccc4C3)cnc21` the half-life was 5.34 h (human female, fed, plasma; oral, 900 mg twice daily, day 7, tablet, arithmetic mean).
`Cc1cc(-c2nccc3c2ccn3CC(=O)Nc2ccc(-c3cnccn3)cn2)ccn1` has a musculoskeletal disorders of 11.1% (human; 15 mg once daily, multiple ascending dose).
The intact complex of `O=C(O)CN1CCCN2CCN(CC(=O)O)CCCN(CC1)Cc1cccc(n1)C2` is reported as 95% (64Cu complex; 24 h, 70 °C, added: DOTA excess).
For `CN1CCCC1CCNS(=O)(=O)c1ccc2c(c1)CN(CC1CCCCC1)CC2` (centres unmarked), the Cmin was 17.1 ng/mL (wild-type mouse, plasma; oral in diet, 0.02% in diet, 6 months).
`Cc1ccc([C@@H]2O[C@H](CO)[C@@H](O)[C@H](O)[C@H]2O)cc1Cc1ccc(-c2ccc(F)cc2)s1`: “urinary magnesium excretion change” 9.74 mg (Japanese type 2 diabetes patients; 25 mg, day 2, 24 h urine collection; relative to: baseline).
For `C[C@@H](O)CCOC(=O)C[C@@H](C)O`, “diastolic blood pressure” read 67 mmHg (human; oral drink, dose not given, 180 min post dose, mean).
The logD of `CC1(CNC(=O)[C@H](CN)NC(=O)c2ccc(C#Cc3ccccc3)cc2)NC(=O)NC1=O` (some centres unmarked) is reported as 1.92 (octanol/buffer; pH 7.4).
`Cc1cn(-c2cc(NC(=O)c3ccc(C)c(Nc4nccc(-c5cccnc5)n4)c3)cc(C(F)(F)F)c2)cn1`: “secondary depot absorption rate constant” 0.141 h⁻¹ (population PK model, bootstrap; human, both sexes, plasma; oral).
For `O=C(N[C@H](Cc1c[nH]c2ccccc12)C(=O)Nc1ccncc1)c1ccc(-c2ccc(F)c(C(F)(F)F)c2)cc1F`, the concentration was 2.82 µM (Swiss Webster mouse, female, fat; oral, 50 mg/kg, 8 h, 20% HPβCD vehicle).
With `C=CC(=O)Nc1cc(Nc2nccc(-c3cn(C4CC4)c4ccccc34)n2)c(OC)cc1N(C)CCN(C)C` the HGB was 152 ± 4.62 g/L (BALB/c nude mouse, LU0387 xenograft, blood; oral, 40 mg/kg).

Repeated from above:
Under “total dose excreted”, `O=C1CC[C@H](N2Cc3cc(N4CCN(CC5CCN(c6ccc([C@@H]7c8ccc(O)cc8CC[C@@H]7c7ccccc7)cc6)CC5)CC4)ccc3C2=O)C(=O)N1` is recorded as 92.9% (radiolabelled mass balance; Sprague-Dawley rat, female, urine and feces; oral, 20 mg/kg, up to 168 h).
Under “enthalpy of phase change”, `C[Si]1(C)O[Si](C)(C)O[Si](C)(C)O[Si](C)(C)O[Si](C)(C)O1` is recorded as 16.4 kcal/mol (1-octanol/water; concentration not given).
The plasma concentration of `CC(=O)N(C)C1CCN(c2cc(F)cc(NC(=O)c3cc4c(F)ccc(C)c4[nH]3)c2)C1` (centres unmarked) is reported as 785 ng/mL (CD1 mouse, plasma; intravenous, 1 mg/kg, 0.167 h).
The %AUC extrapolated of `CC(C)C[C@H](NC(=O)[C@H](CC(C)C)NC(=O)[C@H](Cc1c[nH]c2ccccc12)NC(=O)[C@H](CCC(=O)O)NC(=O)[C@@H](NC(=O)[C@H](Cc1ccccc1)NC(=O)[C@H](CCC(=O)O)NC(=O)[C@H](CCCCNC(=O)COCCOCCNC(=O)COCCOCCNC(=O)CC[C@H](NC(=O)CCCCCCCCCCCCCCCCCCC(=O)O)C(=O)O)NC(=O)[C@H](C)NC(=O)[C@H](CCCCN)NC(=O)[C@H](CCCCN)NC(=O)[C@H](CCC(=O)O)NC(=O)[C@H](CC(=O)O)NC(=O)[C@H](CC(C)C)NC(=O)[C@H](Cc1ccc(O)cc1)NC(=O)[C@H](CCCCN)NC(=O)[C@H](CO)NC(=O)[C@H](Cc1ccc(O)cc1)NC(=O)[C@H](CC(=O)O)NC(=O)[C@H](CO)NC(=O)[C@@H](NC(=O)[C@H](Cc1ccccc1)NC(=O)[C@@H](NC(=O)CNC(=O)[C@H](CCC(N)=O)NC(=O)C(C)(C)NC(=O)[C@@H](N)Cc1c[nH]cn1)[C@@H](C)O)[C@@H](C)O)C(C)C)C(=O)N[C@@H](CCC(=O)O)C(=O)NCC(=O)NCC(=O)N1CCC[C@H]1C(=O)N[C@@H](CO)C(=O)N[C@@H](CO)C(=O)NCC(N)=O` is reported as 1% (human, plasma; subcutaneous, 16 mg weekly, week 20).
